Measured values from different studies.
Every numbered part comes from another study and shows a few of its results, in no order.
Sequence of UniProt P54762 (whole entry, looked up): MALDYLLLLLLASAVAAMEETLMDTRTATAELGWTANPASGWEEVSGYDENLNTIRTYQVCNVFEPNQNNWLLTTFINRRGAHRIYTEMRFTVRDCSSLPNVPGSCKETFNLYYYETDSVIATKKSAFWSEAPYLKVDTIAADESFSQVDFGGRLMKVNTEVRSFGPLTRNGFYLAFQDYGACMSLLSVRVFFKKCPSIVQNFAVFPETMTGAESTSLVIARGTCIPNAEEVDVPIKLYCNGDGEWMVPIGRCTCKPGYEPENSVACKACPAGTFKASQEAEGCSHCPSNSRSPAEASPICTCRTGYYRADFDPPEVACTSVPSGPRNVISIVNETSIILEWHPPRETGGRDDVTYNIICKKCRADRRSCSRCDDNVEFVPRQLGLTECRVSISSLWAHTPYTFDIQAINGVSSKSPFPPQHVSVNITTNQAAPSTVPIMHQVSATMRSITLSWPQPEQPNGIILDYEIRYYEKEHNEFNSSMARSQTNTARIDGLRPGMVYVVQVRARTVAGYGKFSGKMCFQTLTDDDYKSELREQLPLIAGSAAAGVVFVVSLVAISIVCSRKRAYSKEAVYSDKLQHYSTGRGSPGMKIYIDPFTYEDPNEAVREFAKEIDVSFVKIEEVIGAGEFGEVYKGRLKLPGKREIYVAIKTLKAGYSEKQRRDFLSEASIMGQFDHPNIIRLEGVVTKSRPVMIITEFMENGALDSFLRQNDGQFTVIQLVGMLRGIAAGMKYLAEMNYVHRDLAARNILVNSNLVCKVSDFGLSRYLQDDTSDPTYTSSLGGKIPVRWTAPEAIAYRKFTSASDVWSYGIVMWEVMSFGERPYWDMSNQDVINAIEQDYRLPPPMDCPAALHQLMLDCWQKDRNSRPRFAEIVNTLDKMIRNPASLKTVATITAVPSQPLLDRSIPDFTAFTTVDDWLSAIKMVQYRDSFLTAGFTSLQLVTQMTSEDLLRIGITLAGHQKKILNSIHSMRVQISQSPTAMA
Sequence of UniProt O15530 (whole entry, looked up): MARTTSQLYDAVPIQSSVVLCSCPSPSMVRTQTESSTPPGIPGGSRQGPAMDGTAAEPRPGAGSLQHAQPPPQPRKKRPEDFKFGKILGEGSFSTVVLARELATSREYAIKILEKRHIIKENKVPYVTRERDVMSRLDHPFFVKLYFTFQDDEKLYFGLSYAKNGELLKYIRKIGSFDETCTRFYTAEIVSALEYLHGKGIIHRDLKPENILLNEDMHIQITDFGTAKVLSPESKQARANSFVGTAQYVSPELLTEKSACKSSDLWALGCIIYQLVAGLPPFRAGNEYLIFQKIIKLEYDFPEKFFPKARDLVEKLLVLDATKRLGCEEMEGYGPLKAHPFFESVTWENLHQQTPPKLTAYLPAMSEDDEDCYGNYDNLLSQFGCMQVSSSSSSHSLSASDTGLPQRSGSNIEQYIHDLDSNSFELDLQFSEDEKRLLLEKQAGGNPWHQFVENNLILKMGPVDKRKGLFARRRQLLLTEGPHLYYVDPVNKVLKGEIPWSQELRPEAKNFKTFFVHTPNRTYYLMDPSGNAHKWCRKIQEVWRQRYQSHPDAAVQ
Sequence of UniProt Q16816 (whole entry, looked up): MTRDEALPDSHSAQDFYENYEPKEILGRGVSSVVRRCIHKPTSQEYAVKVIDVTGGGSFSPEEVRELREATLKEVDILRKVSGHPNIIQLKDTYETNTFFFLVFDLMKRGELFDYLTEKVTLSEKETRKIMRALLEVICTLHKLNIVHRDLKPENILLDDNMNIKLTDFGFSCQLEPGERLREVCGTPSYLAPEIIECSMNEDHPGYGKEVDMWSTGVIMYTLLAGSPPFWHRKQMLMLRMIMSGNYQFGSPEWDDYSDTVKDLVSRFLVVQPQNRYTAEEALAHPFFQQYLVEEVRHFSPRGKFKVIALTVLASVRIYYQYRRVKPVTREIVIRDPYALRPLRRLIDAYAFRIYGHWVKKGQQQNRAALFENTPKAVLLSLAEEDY
Sequence of UniProt O14733 (whole entry, looked up): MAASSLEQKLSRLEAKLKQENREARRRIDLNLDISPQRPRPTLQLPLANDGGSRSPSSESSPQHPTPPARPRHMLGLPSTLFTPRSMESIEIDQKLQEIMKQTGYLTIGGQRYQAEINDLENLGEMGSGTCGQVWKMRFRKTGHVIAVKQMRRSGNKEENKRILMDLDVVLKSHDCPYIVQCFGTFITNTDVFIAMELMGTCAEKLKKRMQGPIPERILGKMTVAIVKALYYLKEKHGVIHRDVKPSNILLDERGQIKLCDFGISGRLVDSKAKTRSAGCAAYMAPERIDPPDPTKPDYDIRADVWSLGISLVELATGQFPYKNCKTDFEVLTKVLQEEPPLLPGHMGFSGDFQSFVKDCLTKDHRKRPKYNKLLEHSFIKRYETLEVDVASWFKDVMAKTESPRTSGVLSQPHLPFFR
Sequence of UniProt Q13554 (whole entry, looked up): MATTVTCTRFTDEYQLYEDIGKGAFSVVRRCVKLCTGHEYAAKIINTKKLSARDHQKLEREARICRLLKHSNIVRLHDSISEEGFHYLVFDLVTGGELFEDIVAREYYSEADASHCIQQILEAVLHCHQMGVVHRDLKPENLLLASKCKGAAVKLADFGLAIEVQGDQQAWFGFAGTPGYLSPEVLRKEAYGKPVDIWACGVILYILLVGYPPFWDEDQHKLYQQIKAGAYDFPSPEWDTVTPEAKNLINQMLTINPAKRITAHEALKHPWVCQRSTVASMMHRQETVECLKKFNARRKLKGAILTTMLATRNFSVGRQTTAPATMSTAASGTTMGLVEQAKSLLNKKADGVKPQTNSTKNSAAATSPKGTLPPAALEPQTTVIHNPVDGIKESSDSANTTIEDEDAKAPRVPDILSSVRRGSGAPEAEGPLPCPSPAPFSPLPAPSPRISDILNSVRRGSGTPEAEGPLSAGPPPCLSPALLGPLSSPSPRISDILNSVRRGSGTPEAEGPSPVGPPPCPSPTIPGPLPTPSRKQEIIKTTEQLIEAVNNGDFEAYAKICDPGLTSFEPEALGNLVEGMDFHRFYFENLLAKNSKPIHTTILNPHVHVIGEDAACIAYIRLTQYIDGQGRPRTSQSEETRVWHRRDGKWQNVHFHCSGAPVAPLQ
Sequence of UniProt Q16620 (whole entry, looked up): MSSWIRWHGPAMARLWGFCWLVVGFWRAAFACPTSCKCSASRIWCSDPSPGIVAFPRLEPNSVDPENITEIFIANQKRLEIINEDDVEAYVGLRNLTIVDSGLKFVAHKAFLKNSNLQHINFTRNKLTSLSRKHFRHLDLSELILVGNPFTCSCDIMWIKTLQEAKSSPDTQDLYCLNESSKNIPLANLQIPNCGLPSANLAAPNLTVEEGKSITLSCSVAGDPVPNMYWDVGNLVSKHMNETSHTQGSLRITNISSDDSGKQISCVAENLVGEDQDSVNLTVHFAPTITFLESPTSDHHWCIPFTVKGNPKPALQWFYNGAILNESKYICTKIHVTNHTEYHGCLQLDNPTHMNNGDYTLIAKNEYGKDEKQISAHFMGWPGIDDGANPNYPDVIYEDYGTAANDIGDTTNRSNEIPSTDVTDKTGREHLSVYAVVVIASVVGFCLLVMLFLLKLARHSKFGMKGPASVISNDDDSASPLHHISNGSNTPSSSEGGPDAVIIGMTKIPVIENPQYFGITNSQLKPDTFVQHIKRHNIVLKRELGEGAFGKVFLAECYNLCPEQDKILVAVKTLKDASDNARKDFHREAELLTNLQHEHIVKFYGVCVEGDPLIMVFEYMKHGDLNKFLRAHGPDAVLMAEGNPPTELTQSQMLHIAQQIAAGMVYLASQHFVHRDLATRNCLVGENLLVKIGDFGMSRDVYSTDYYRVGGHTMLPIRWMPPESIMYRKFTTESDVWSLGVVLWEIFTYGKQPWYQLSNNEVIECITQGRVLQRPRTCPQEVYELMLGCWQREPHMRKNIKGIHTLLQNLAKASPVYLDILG
Sequence of UniProt Q9UK32 (whole entry, looked up): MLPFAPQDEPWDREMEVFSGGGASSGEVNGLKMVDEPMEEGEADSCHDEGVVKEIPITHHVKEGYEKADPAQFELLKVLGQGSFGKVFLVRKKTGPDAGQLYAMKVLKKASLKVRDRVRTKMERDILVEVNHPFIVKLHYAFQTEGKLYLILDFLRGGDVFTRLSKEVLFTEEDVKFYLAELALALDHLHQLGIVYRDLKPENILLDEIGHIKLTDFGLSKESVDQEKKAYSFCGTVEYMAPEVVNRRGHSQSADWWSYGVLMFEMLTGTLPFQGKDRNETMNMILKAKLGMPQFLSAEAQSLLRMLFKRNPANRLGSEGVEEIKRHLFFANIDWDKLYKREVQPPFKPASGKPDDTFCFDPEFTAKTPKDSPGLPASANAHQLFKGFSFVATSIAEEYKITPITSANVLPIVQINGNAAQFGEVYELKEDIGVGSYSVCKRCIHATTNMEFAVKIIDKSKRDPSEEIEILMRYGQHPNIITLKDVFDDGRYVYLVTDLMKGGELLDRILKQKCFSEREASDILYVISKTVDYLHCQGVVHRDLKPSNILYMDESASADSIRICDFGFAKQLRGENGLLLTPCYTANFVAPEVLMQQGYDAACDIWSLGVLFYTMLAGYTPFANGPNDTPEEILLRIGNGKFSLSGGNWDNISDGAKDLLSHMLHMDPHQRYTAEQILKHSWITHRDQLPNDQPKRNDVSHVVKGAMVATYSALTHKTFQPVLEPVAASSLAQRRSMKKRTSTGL

Sample 1
Structure (SMILES): CN(C(=O)c1ccccc1)c1cc(N(C)c2ccc3c(c2)CCc2ccc(C(=O)NCCN4CCOCC4)cc2C3=O)ccc1F
Observed: cell-free assay
Technique: competition with immobilised ligand
Tested at: 1 µM
Measurement: remaining binding
SBK3 (Homo sapiens, UniProt P0C264): 84%
MAP2K7 (Homo sapiens, UniProt O14733): 100%
PIK3CA (Homo sapiens, UniProt P42336, H1047Y): 100%
Tyrosine-protein kinase ABL1, phosphorylated (ABL1, Homo sapiens, UniProt P00519, M351T): 100%
HIPK1 (Homo sapiens, UniProt Q86Z02): 94%
EPHB1 (Homo sapiens, UniProt P54762): 96%
DCLK3 (Homo sapiens, UniProt Q9C098): 87%
Tyrosine-protein kinase ABL1, phosphorylated (ABL1, Homo sapiens, UniProt P00519, Q252H): 100%
PIK3CD (Homo sapiens, UniProt O00329): 100%
NTRK2 (Homo sapiens, UniProt Q16620): 100%
PRKG1 (Homo sapiens, UniProt Q13976): 67%
TNK2 (Homo sapiens, UniProt Q07912): 100%

Sample 2
Target: Phosphate system positive regulatory protein PHO4, full length, GST-tagged (PHO4, Saccharomyces cerevisiae, UniProt P07270, residues 1-312)
Technique: competition protein-binding microarray
Form: double-stranded DNA, one strand shown
Medium: in vitro
Tested at: 2 µM
Setting: whole 60-bp probe, lowest competitor level
Added: Cbf1 competitor, 0.05 µM
Direction: higher = stronger binding
Measurement: fluorescence intensity
Constant ends, left off below: … GTCTTGATTCGCTTGACGCTGCTG
Residues (chain): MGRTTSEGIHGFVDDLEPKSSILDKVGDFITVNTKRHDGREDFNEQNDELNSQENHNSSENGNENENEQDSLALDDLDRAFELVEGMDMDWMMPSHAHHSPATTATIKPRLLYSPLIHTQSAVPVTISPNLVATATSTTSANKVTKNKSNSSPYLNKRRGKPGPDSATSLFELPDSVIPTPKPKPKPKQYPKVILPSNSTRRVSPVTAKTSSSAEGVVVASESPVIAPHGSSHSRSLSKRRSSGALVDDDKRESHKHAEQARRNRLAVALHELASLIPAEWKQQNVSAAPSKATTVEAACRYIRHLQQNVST
GAATAGGGATATCTGCACATGGGGCCTCGAGCATGG: 12200 a.u.
AGAGAGTTGATAGAACAAAGGACAAAGAAATTTAGA: 2630 a.u.
AGAGCCGATACGGCACCCGTGCGATACGAGACAGGA: 8220 a.u.
TCGAGAACTTAGGGTAGCGTGCCAGAAAATTTGCAT: 7380 a.u.
CATACCCAACCTTTACACGTGTTTTAAGATATTTGT: 19900 a.u.
CTTCTGTAAATTTGGCGAGTGGGTGGACGCGCCCCG: 4510 a.u.
ACCAAGACTAACGGCCACGCTGCACCAACCACCAAG: 8550 a.u.
CTAACGAAGGTTTTTCACGTGTACTACAAGCCAAGT: 12400 a.u.

Sample 3
Target: Ras GTPase-activating protein-binding protein 1, full length (G3BP1, Homo sapiens, UniProt Q13283)
Sequence of UniProt Q13283 (whole entry, looked up): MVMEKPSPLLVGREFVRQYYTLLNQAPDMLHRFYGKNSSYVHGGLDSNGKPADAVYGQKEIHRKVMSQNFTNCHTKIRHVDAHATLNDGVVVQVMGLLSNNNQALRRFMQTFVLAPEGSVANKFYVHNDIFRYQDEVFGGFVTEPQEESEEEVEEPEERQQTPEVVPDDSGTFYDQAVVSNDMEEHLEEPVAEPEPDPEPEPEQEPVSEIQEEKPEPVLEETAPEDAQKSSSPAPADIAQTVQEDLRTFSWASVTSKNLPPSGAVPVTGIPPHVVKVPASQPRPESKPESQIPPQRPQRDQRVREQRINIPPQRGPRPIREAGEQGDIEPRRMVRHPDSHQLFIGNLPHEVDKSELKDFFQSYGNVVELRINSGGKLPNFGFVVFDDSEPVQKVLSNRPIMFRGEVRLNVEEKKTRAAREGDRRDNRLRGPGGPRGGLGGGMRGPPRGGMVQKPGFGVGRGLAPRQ
Technique: RNA Bind-n-Seq
Form: RNA
Medium: in vitro
Tested at: 200 nM
Setting: whole 134-nt RNA, ends assumed
Added: 150 mM LiCl
Relative to: input library
Direction: higher = stronger binding
Measurement: log2 enrichment
All molecules: 7-deaza-guanosine replaces G
Constant ends, left off below: GGGAGUUCUACAGUCCGACGAUC … UGGAAUUCUCGGGUGUCAAGG
GUCCUGUGCUACACAUCGUAUGUACCGAAUCGGGAAAAAGGGGAAAAAGGAAAAAGGGGAAAGUAUUAUGUUACGCCGUUCGGAUCUGCA: 0.228
UCAAGUCCUGUGCUACACAUCGUAUGUACCGAAUCGGUGGAAAAAAAGGUUUGGAAAGUAUUAUGUUACGCCGUUCGGAUCUGCACUUCC: -1.15
CAAGUCCUGUGCUACACAUCGUAUGUACCGAAUCGGAAAAAGGUUUUUUUGGAGGAAAGUAUUAUGUUACGCCGUUCGGAUCUGCACUUC: -1.35
CACAGAGAACACGCACCCACACAGACACAGAGGGAAGGGGUUGGGAUGGGGACAGGGUGCACAGCAGGGCGGGGUAGGACCCCAGCCCCU: 0.578
CCUGUGCUACACAUCGUAUGUACCGAAUCGGGAAAAAGGGAAAAAAAGGGAAAAAAAGGGAAAGUAUUAUGUUACGCCGUUCGGAUCUGC: 0.132
UCCUGUGCUACACAUCGUAUGUACCGAAUCGGGUUUUUGGGGUUUUUGGGGUUUUUGGGGAAAGUAUUAUGUUACGCCGUUCGGAUCUGC: -0.0202
CUGUGCUACACAUCGUAUGUACCGAAUCAAACCCCCCCAAAUUUUUUUAAACCCCCCCAAAAAAGUAUUAUGUUACGCCGUUCGGAUCUG: 1.05
UAGGUAUUUCUGGGAAAAGCCAGCUUCUGUUUGCACUGGUCUUCACAACUCGUUACCUGGAUCUUUUUACUUCAUUUAUUUCAUUGUAUA: -1.59

Sample 4
SMILES: O=Nc1c(-c2c(O)[nH]c3cc(Br)ccc23)[nH]c2ccccc12
Observed: enzyme activity
Action: inhibitor
Tested at: 0.5 µM
Relative to: control
Measurement: remaining activity
DYRK3 (Homo sapiens, UniProt O43781): 104%
EPHA4 (Homo sapiens, UniProt P54764): 90.2%
PHKG1 (Homo sapiens, UniProt Q16816): 41.8%
EPHB1 (Homo sapiens, UniProt P54762): 72.3%
Cyclin-dependent kinase 6, with cyclin D3 (CDK6, Homo sapiens, UniProt Q00534): 25.4%
EPHB4 (Homo sapiens, UniProt P54760): 78.5%
HIPK4 (Homo sapiens, UniProt Q8NE63): 106%
BLK (Homo sapiens, UniProt P51451): 11.3%
WNK3 (Homo sapiens, UniProt Q9BYP7): 93.8%
STK16 (Homo sapiens, UniProt O75716): 64%
RPS6KA5 (Homo sapiens, UniProt O75582): 82.6%
CAMK2B (Homo sapiens, UniProt Q13554): 65.8%
RPS6KA6 (Homo sapiens, UniProt Q9UK32): 43.1%
Cyclin-dependent kinase 1, with cyclin B (CDK1, Homo sapiens, UniProt P06493): 50.5%
Cyclin-dependent kinase 4, with cyclin D3 (CDK4, Homo sapiens, UniProt P11802): 75.9%
MAPKAPK3 (Homo sapiens, UniProt Q16644): 96.1%
PDPK1 (Homo sapiens, UniProt O15530): 86.4%

For quick reference, copied from above (sample 4):
PHKG1 (Homo sapiens, UniProt Q16816): 41.8%
EPHB1 (Homo sapiens, UniProt P54762): 72.3%
Cyclin-dependent kinase 6, with cyclin D3 (CDK6, Homo sapiens, UniProt Q00534): 25.4%
